# Assay results gathered from unrelated publications.
# Compare with care: the assays were run in different laboratories. Numbers after ± are the reported error.
SMILES,target or system,test,system,conditions,scale,measurement,value
O=C(Cc1cccc(I)c1)N[C@H]1CCOC1=O,ExpR1 (Pectobacterium carotovorum),"cellulase activity, antagonist","Pectobacterium carotovorum, single-ExpR1 strain","5 µM, 4 h, together with: OHHL 5 µM",,inhibition,83%
CC[C@H](C)[C@@H]1NC(=O)[C@@H]2CCCN2C(=O)[C@H](CC(C)C)NC(=O)[C@H](CC(C)C)NC(=O)CNC(=O)[C@@H](NC(=O)[C@@H](NC(=O)[C@H](CC(=O)O)NC(=O)CNC(=O)[C@@H](NC(=O)[C@H](C)NC(=O)CNC(=O)[C@H](CCCCN)NC(=O)[C@H](CC(C)C)NC(=O)[C@H](CC(C)C)NC(=O)[C@H](CCCCN)NC(=O)CNC(=O)[C@@H](NC(=O)[C@@H](N)CC(C)C)C(C)C)C(C)C)C(C)C)CSSC[C@@H](C(=O)O)NC1=O,,"RNA-seq, item: Hcls1","mouse, traumatic brain injury model, frontal cortex and hippocampus",dose not given,baseline: TBI alone,log2 fold change,-2.03
C[C@]1(CO)Cc2ncn(-c3ccc(C#N)c(Cl)c3)c2C(=O)O1,,"aldosterone synthesis, inhibitor, item: potassium","healthy Japanese adults, urine","80 mg, 0-24 h at steady state, multiple rising dose",,urinary excretion,29.6 mmol
COc1ccc2c(ccc3oc([N+](=O)[O-])c(OC)c32)c1,Mycobacterium bovis BCG,,1173 P2,,,MIC90,> 32 µg/mL
C#CC[C@@H](N)C(=O)N[C@H](CO)C(=O)N[C@@H](C(=O)N[C@H](CO)C(=O)N[C@H](CCC(=O)O)C(=O)N[C@@H](C(=O)N[C@H](CCC(N)=O)C(=O)N[C@H](CC(C)C)C(=O)N[C@H](CCSC)C(=O)N[C@H](Cc1c[nH]cn1)C(=O)N[C@H](CC(N)=O)C(=O)N[C@H](CC(C)C)C(=O)NCC(=O)N[C@H](CCCCN)C(=O)N[C@H](Cc1c[nH]cn1)C(=O)N[C@H](CC(C)C)C(=O)N[C@H](CC(N)=O)C(=O)N[C@H](CO)C(=O)N[C@H](CCSC)C(=O)N[C@H](CCC(=O)O)C(=O)N[C@H](CCCNC(=N)N)C(=O)N[C@@H](C(=O)N[C@H](Cc1ccc(O)cc1)C(=O)N[C@H](Cc1c[nH]c2ccccc12)C(=O)N[C@H](CC(C)C)C(=O)N[C@H](CCCNC(=N)N)C(=O)N[C@H](Cc1ccccc1)C(=O)N[C@H](CCCCN)C(=O)N[C@H](CC(C)C)C(=O)N[C@H](CCC(N)=O)C(=O)N[C@H](C)C(=O)N[C@@H](C(N)=O)C(C)C)C(C)C)[C@H](C)CC)C(C)C,hemagglutinin influenza A/California/07/2009 H1N1,,,,,IC50,33 µM
CC(C)N1CCC(NC2CCN(c3cccc(-c4cc5cc(F)ccc5[nH]4)c3)CC2)CC1,786-0,,,,,CC50,6.41 µM
CCCCC1(CCCC)CN(c2ccccc2)c2cc(SC)c(OCC(=O)N[C@@H](C(=O)NCC(=O)O)c3ccccc3)cc2S(=O)(=O)C1,,item: LDL cholesterol,"human, serum","5 mg once daily, day 7",,serum LDL-C,100 mg/dL
CN1C(=O)C(C2C3=C(CC(C)(C)CC3=O)Oc3c(O)cccc32)C(=O)N(C)C1=O (centres unmarked),3T3-L1 adipocytes,"qPCR, item: aP2",,"IC20, 14 days, adipogenic induction",baseline: untreated,mRNA level,no effect
O=C1CCP(=S)(c2ccccc2)CC1,PC-3,MTT,,72 h,baseline: IC50 HaCaT over IC50 PC-3,selectivity index,2.4
CC[C@@H](NC(=O)CNC(=O)[C@@H](Cc1ccccc1)NC(=O)CNC(=O)[C@H](N)CCC(N)=O)C(=O)N[C@H](CC(=O)O)C(=O)N[C@H](CCC(=O)O)C(=O)N[C@H](CCSC)C(=O)N[C@H](CC(C)C)C(=O)N[C@H](CCC(N)=O)C(=O)NCC(=O)N[C@H](Cc1ccccc1)C(=O)N[C@H](C)C(=O)N[C@@H](C(=O)N[C@H](C)C(=O)N[C@H](CC)C(=O)N[C@H](CCCCN)C(=O)N[C@H](CCSC)C(=O)NCC(=O)N[C@H](C)C(=O)N[C@H](Cc1ccc(O)cc1)C(=O)N[C@H](CCCCN)C(=O)N[C@H](C)C(=O)N[C@H](Cc1c[nH]c2ccccc12)C(=O)O)C(C)C,hemagglutinin influenza A/California/07/2009 H1N1,,,,,IC50,30 µM
O=C(Cc1ccccc1I)N[C@H]1CCOC1=O,ExpR1 (Pectobacterium carotovorum),"cellulase activity, agonist","Pectobacterium carotovorum, single-ExpR1 strain","200 µM, 4 h",baseline: OHHL,activation,11%
CC/C(=C(\c1ccc(O)cc1)c1ccc(OCCN(C)C)cc1)c1ccccc1,"MCF7 3xERE-luc, steroid-deprived","ERE luciferase reporter, agonist",,,,EC50,0.02 µM
CN1CC[C@]23c4c5ccc(O)c4O[C@H]2[C@@H](O)C=C[C@H]3[C@H]1C5,,hot water tail withdrawal test,normal Sprague-Dawley rats,dose not given,,time to peak effect,45 to 60 min
COc1cc(CCC[P+](c2ccccc2)(c2ccccc2)c2ccccc2)c(OC)c2c1OCO2.[I-],CCRF-CEM,SRB,,,,Log10TGI,> -4 log M
C[C@H]1[C@H](C)CC[C@]2(C(=O)O)CC[C@]3(C)C(=CC[C@@H]4[C@@]5(C)CC[C@H](O)C(C)(C)[C@@H]5CC[C@]43C)[C@H]12,MCF7,"cell growth, MTT",,"100 µg/mL, 48 h",,cell survival,21.3 ± 0.42%
O=C(Cc1ccc(Br)cc1)N[C@H]1CCOC1=O,ExpR1 (Pectobacterium carotovorum),"cellulase activity, antagonist","Pectobacterium carotovorum, single-ExpR1 strain","5 µM, 4 h, together with: OHHL 5 µM",,inhibition,71%
C#CC[C@@H](N)C(=O)N[C@H](CO)C(=O)N[C@@H](C(=O)N[C@H](CO)C(=O)N[C@H](CCC(=O)O)C(=O)N[C@@H](C(=O)N[C@H](CCC(N)=O)C(=O)N[C@H](CC(C)C)C(=O)N[C@H](CCSC)C(=O)N[C@H](Cc1c[nH]cn1)C(=O)N[C@H](CC(N)=O)C(=O)N[C@H](CC(C)C)C(=O)NCC(=O)N[C@H](CCCCN)C(=O)N[C@H](Cc1c[nH]cn1)C(=O)N[C@H](CC(C)C)C(=O)NCC(=O)N[C@H](CO)C(=O)N[C@H](CCSC)C(=O)N[C@H](CCC(=O)O)C(=O)N[C@H](CCCNC(=N)N)C(=O)N[C@@H](C(=O)N[C@H](Cc1ccccc1)C(=O)N[C@H](C)C(=O)N[C@H](CC(C)C)C(=O)N[C@H](CCCNC(=N)N)C(=O)N[C@H](Cc1ccccc1)C(=O)N[C@H](CCCCN)C(=O)N[C@H](CC(C)C)C(=O)N[C@H](CCC(N)=O)C(=O)N[C@H](CC(C)C)C(=O)N[C@@H](C(N)=O)[C@H](C)CC)C(C)C)[C@H](C)CC)C(C)C,hemagglutinin influenza A/California/07/2009 H1N1,,,,,IC50,124 µM
"COCCC1=C(C(=O)OC)C(c2ccc(Cl)cc2)C2=C(CC(c3ccc(OC)c(OC)c3)CC2=O)N1 (single isomer, unassigned)",J774.A1,cytotoxicity,,,,EC50,> 20 µM
N=C(N)c1ccc(OCCC(CCOc2ccc(C(=N)N)cc2)c2ccccc2)cc1 (centres unmarked),Escherichia coli,,BW25113,"concentration not given, lowest-FICI combination, together with: erythromycin",,MIC in combination,12.5 µg/mL
COc1ccc(-n2nc(C(C)=O)s/c2=N\N=C(/C)c2ccc(NC(C)=O)cc2)cc1,HepG2,,,0.625 µM,,viability,5.18%
Cc1cn(-c2cc(NC(=O)c3ccc(C)c(Nc4nccc(-c5cccnc5)n4)c3)cc(C(F)(F)F)c2)cn1,,,human patients,"baseline, unit not given",baseline: placebo,ADAS-Cog maze errors difference,0
COc1c(CCC[P+](c2ccccc2)(c2ccccc2)c2ccccc2)cc2c(c1OC)OCO2.[I-],SK-MEL-2,SRB,,,,GI50,-5.52 log M
O=C1c2c(O)c(=O)ccn2N([C@@H]2c3ccccc3SCc3c2ccc(F)c3F)[C@@H]2COCCN12,influenza A virus,,"A/WSN/33 (H1N1), BALB/c mouse, lung","subcutaneous, 0.125 mg/kg every 6 h, 24 h",,lung virus titre,3.68 log10 TCID50/mL

# A few entries again:
SMILES,target or system,test,system,conditions,scale,measurement,value
CN1C(=O)C(C2C3=C(CC(C)(C)CC3=O)Oc3c(O)cccc32)C(=O)N(C)C1=O (centres unmarked),3T3-L1 adipocytes,"qPCR, item: aP2",,"IC20, 14 days, adipogenic induction",baseline: untreated,mRNA level,no effect
